Published values gathered from unrelated publications.
Compare with care: the assays were run in different laboratories. ± gives the spread as reported.
U2AF2: U2AF2 148-342 (Homo sapiens, UniProt P26368)
UniProt P26368, sequence (whole entry, looked up): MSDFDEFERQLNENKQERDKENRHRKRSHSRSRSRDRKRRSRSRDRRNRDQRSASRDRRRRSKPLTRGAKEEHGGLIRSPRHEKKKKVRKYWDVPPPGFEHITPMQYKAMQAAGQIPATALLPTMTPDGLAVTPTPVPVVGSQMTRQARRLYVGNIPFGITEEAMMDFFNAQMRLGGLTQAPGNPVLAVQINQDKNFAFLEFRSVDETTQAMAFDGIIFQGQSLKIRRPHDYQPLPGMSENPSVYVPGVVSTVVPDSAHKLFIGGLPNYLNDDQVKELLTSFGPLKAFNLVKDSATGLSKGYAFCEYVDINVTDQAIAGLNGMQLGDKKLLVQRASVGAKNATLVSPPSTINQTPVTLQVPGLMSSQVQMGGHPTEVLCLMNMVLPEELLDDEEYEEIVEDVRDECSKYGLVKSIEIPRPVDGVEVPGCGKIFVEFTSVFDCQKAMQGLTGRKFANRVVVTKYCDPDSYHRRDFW
SPT15 full length assumed: SPT15 full length assumed (Saccharomyces cerevisiae, UniProt P13393)
UniProt P13393, sequence (whole entry, looked up): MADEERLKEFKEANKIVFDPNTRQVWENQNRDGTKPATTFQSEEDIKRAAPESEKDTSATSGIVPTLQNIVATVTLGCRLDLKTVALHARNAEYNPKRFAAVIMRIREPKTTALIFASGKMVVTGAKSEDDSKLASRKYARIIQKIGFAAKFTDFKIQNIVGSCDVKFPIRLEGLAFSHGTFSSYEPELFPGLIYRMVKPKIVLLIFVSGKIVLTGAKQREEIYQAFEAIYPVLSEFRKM
ulaR full length assumed: ulaR full length assumed (Escherichia coli, UniProt P0A9W0)
UniProt P0A9W0, sequence (whole entry, looked up): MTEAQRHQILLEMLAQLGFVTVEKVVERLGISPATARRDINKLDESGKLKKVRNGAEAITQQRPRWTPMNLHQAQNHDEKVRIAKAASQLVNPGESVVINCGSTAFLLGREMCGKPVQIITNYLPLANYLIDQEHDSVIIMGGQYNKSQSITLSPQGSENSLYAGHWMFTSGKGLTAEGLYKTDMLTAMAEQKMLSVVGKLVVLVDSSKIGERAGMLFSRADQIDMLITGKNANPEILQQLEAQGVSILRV
CBF1: CBF1 1-351 (Saccharomyces cerevisiae, UniProt P17106)
UniProt P17106, sequence (whole entry, looked up): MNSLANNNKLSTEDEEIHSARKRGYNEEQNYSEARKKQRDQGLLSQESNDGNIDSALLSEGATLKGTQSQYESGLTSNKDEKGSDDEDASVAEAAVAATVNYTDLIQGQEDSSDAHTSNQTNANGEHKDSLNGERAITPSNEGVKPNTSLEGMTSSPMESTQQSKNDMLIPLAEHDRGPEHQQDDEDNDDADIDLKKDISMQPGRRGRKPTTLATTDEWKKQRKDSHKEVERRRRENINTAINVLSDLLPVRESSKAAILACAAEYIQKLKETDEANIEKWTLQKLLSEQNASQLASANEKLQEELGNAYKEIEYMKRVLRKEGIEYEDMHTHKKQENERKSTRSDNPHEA
CBF1 full length assumed: CBF1 full length assumed (Saccharomyces cerevisiae, UniProt P17106)
PARP1: PARP1 1-1014 (Homo sapiens, UniProt P09874)
UniProt P09874, sequence (whole entry, unmodified, looked up): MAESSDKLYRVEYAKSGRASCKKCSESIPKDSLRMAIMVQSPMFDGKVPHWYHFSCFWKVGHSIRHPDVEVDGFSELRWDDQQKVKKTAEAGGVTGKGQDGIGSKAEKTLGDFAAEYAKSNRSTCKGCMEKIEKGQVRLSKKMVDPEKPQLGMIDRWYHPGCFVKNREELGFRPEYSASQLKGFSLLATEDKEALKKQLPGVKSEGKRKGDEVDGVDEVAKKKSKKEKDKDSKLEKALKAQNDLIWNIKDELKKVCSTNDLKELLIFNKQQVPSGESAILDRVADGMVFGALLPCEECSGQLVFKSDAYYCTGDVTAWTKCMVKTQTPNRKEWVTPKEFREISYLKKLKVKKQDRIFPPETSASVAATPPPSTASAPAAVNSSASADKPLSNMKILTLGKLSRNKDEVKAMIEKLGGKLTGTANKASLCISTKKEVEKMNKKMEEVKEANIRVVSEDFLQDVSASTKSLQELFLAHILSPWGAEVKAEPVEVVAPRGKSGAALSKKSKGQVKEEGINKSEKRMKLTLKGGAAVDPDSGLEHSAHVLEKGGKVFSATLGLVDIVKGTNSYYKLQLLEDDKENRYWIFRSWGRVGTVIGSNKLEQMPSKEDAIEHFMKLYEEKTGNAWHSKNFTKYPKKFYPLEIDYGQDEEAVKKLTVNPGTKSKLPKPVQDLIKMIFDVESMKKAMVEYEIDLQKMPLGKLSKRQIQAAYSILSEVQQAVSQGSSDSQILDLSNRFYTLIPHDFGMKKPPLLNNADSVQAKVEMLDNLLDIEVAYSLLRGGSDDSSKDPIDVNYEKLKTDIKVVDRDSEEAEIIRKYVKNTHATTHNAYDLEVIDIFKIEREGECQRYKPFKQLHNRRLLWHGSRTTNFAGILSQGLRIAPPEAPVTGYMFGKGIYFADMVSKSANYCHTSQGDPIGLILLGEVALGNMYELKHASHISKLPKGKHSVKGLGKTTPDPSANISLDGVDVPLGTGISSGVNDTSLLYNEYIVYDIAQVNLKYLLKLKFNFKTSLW
PHO4: PHO4 1-312 (Saccharomyces cerevisiae, UniProt P07270)
UniProt P07270, sequence (whole entry, looked up): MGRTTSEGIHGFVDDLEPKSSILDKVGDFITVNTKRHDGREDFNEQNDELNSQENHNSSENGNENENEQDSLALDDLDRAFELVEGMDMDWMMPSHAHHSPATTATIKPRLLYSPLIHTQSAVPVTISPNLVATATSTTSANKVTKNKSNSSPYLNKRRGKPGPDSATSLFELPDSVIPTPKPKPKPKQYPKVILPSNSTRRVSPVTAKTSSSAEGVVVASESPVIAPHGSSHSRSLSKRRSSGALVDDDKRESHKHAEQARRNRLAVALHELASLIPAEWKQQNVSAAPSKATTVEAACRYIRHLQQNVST
T1: TOA1/TOA2 1-286; 1-122 (Saccharomyces cerevisiae); chain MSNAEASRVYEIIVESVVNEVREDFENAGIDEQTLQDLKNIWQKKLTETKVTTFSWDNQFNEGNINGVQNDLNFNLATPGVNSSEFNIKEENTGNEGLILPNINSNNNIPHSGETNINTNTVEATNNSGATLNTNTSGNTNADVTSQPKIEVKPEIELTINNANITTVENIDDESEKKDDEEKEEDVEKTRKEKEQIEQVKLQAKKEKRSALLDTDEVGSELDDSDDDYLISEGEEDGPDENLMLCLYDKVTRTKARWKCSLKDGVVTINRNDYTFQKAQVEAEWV; chain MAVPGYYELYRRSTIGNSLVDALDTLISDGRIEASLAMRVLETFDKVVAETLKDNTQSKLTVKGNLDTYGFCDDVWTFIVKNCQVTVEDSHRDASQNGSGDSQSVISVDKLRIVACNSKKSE
UniProt P15976, sequence (whole entry, looked up): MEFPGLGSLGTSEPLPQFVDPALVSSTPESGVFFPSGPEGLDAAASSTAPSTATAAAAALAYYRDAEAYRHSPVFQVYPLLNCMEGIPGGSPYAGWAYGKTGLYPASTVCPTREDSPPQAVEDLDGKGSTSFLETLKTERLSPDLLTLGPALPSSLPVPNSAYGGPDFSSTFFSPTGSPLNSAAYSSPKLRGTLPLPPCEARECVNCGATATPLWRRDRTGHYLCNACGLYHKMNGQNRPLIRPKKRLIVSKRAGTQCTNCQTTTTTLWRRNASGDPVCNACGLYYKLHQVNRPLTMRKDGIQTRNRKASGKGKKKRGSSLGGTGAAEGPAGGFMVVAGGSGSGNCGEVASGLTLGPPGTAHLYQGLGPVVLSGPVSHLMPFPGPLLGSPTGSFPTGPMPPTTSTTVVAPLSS
UniProt P14565, sequence (whole entry, looked up): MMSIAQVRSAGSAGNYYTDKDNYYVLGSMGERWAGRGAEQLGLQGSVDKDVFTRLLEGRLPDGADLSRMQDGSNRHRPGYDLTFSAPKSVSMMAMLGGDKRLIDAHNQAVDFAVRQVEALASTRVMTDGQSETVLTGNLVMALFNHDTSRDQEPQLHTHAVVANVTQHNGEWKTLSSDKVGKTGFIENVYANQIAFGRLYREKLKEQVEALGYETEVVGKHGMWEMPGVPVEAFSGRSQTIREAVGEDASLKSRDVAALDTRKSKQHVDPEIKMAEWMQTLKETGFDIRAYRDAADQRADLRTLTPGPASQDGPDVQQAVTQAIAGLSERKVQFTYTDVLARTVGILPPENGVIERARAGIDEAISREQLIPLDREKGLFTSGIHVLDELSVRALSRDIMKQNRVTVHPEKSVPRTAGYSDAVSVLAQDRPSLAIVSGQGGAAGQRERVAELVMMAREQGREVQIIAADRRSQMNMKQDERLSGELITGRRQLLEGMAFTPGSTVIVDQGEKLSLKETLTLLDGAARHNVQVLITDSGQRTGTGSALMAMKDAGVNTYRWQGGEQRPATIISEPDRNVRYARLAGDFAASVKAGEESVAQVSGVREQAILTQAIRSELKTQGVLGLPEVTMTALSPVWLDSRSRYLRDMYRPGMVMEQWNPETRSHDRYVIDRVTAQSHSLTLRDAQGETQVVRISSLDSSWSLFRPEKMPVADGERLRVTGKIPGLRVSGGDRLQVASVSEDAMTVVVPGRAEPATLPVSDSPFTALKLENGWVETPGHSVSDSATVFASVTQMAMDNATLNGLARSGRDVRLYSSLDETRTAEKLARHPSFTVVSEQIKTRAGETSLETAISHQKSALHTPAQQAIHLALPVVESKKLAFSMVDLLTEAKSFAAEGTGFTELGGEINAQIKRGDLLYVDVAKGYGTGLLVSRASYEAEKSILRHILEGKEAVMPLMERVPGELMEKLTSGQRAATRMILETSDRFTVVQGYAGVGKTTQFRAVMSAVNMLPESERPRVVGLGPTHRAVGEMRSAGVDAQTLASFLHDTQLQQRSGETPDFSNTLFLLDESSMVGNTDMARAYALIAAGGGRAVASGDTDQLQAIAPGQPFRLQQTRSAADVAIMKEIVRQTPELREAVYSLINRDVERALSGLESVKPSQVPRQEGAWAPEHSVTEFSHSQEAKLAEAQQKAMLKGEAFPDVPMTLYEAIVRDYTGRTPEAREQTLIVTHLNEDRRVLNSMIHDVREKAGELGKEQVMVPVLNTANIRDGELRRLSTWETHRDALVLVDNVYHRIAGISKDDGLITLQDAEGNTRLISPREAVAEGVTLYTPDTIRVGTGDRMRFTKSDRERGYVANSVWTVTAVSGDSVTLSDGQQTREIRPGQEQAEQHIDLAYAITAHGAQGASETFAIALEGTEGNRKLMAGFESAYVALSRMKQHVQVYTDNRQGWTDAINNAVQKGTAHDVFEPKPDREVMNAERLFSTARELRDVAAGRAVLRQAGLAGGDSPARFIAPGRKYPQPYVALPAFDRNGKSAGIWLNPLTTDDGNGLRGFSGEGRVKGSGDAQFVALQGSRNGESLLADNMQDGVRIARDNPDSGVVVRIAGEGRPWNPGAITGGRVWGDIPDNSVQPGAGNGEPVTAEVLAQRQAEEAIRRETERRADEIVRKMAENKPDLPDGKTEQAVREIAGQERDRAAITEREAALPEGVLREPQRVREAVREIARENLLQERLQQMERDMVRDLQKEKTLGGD

CCCCCGCGCCTACGCAAGTTTTCCGGATCCGTCCATCAAGTCAATCGGTCC (dsDNA; 5'-amino-C6 primer)  Kd (T1, TOA1/TOA2 1-286; 1-122 (Saccharomyces cerevisiae); array; double-stranded DNA, one strand shown; TFIIA alone): 93.1 ± 32.4 nM
TTTGCGTGGGCTGTGGTGCTTT (ssDNA)  Kd (traI 381-858 (Escherichia coli, UniProt P14565); fluorescence titration; single-stranded DNA): 38.6 ± 5 nM
11-deoxycorticosterone  rate constant k3 (CYP11B2 (human); substrate binding, stopped-flow kinetic modelling; 4-state branched induced-fit model, added: equimolar adrenodoxin): 0.0832 min⁻¹
UAUUUGAUU (ssRNA)  Kd (U2AF2; sequencing of bound RNA; RNA; motif only): 5140 nM
DNA 1 GCCGGGCCGGCCGGCCGGCCCCCGGGGCCCGGCGCTCAATTCAATCGGTCC / DNA 2 GGACCGATTGACTTGAGCGCCGGGCCCCGGGGGCCGGCCGGCCGGCCCGGC (dsDNA; blunt; C:T mismatch; 5'-amino-C6 primer)  Kd (SPT15 full length assumed; array; double-stranded DNA; TBP alone): 3.51 ± 0.27 nM
GCAUUUGAG (ssRNA)  Kd (U2AF2; sequencing of bound RNA; RNA; motif only): 4850 nM
GTAAAGTAGGAACGGTATTAATAGAAATGATACTAAAGTACGAAATAATAAACTGGAATTT (dsDNA)  Kd (ulaR full length assumed; BLI; double-stranded DNA, one strand shown): 3050 nM
CTGAAGGGGGGGCTATAAAAGAAGGTGGGGGCTCCTCAAGTCAATCGGTCC (dsDNA; 5'-amino-C6 primer)  Kd (SPT15 full length assumed; array; double-stranded DNA, one strand shown; TBP alone): 77.5 ± 47.5 nM
CCACACTGTTACATAAGTTAATCTTAGGTGAAATACCGACTTCATAACTTTTACGCATTAT (dsDNA)  Kd (nac full length assumed (Escherichia coli, UniProt Q47005); BLI; double-stranded DNA, one strand shown): 5.78 nM
DNA TGTGTCACCACTGCTCACGTACAGAGCTG / RNA CAGCUCUGUACGUGAGCAGUGGUGACAC (DNA:RNA hybrid; 5' 1-nt overhang)  Kd (TDG 1-410 (Homo sapiens, UniProt Q13569); EMSA; DNA-RNA hybrid): 57 nM
UUCAGAGGA (ssRNA)  Kd (SRSF1 1-196 (Homo sapiens, UniProt Q07955); fluorescence polarization; RNA): 104 ± 3 nM
CAATACACTGTTATCAGACACACGTGTCGAACTACTCGTTCGGTTATCCGGCGGTATGAC (dsDNA)  Kd (CBF1; MITOMI; double-stranded DNA, one strand shown; not purified): 153 ± 7 nM
RNA 1 GCGGUGUAUAGCCUAAUCUUUACCGC / RNA 2 GCGGUAAAGAUUAGGCUAUACACCGC (dsRNA)  Kd (MECP2 1-486 (Homo sapiens, UniProt P51608); fluorescence polarization; double-stranded RNA; untagged): 53 nM
CGCGGGCACATGGGGACATGGGTACATGGTCACATGGTGACATGGTTACATGTAGCTCCGGCGGTATGAC (dsDNA)  Kd (CBF1 full length assumed; MITOMI; double-stranded DNA, one strand shown; not purified): 61 ± 4 nM
AUCAUGUUGCCAUUU (ssRNA)  Kd (fbf-1 162-573 (Caenorhabditis elegans, UniProt Q9N5M6); EMSA; RNA): 479 nM
DNA AGAGTGCGACACCTGATTCC / RNA GGAAUCAGGUGUCGCACUCU (DNA:RNA)  Kd (RNase HIII tandem 1-81 domains L52M (Geobacillus stearothermophilus, UniProt Q6L6Q4); fluorescence anisotropy; DNA-RNA hybrid): 91 ± 10 nM
CGCTTATAGAATTATATAATTATCCAATTATCGAATTATCTAATTATGCAATTATCTCCGGCGGTATGAC (dsDNA)  Kd (CIN5 full length assumed (Saccharomyces cerevisiae, UniProt P40917); MITOMI; double-stranded DNA, one strand shown; not purified): 450 ± 30 nM
CCTGCGGTATTGACACTTGAGGGGCGCGACTACTGACAGATGAGGGGCGCGATCCTTGACACTTGAGGGGCAGAGTGATGACAGATGAGGGGCGCACCTATTGACATTTGAGGGGCTGTCCACAGGCAG (dsDNA)  Kd (trfA 98-382 G254D/S267L/K303E (Escherichia coli, UniProt P07676); SPR; double-stranded DNA, one strand shown): 1.45 nM
AUUCUUCUC (ssRNA)  Kd (U2AF2; sequencing of bound RNA; RNA; motif only): 3460 nM
ACAGGGGTGTGGGGACAGGGGTGTGGGG (G-quadruplex DNA (Homo sapiens); intramolecular G4)  Kd (IGF2 fragment (Homo sapiens); SPR; folded DNA; added: IGF-2 45-900 nM): 1.3 nM
GCGGUGUAUAGCCUAAUCUUUACCGC (structured RNA)  Kd (PARP1; fluorescence polarization; folded RNA; Hill coefficient 0.97): 120 ± 8 nM
CAATACACTGTTATCAGACACACGTGTCGACCTACTCGTTCGGTTATCCGGCGGTATGAC (dsDNA)  Kd (PHO4; MITOMI; double-stranded DNA, one strand shown; not purified): 121 ± 3 nM
GAUACAGAG (ssRNA)  Kd (SART3 697-786 (Homo sapiens, UniProt Q15020); ITC; RNA): 1800 ± 400 nM
GCAGUAGGGUGAGGGUGUUGGCAGGGAGCGCCCUCCCCCAUAGUGU (RNA; multiple G-quadruplex hairpins)  Kd (PARP1 216-1014 del1-215 (Homo sapiens, UniProt P09874); fluorescence polarization; folded RNA; Hill coefficient 0.45): 6.8 ± 1.3 nM
GGGTTGCGGCCGCTTGGG (dsDNA; blunt, 5'-phosphate)  Kd (PARP1 full length assumed (Homo sapiens, UniProt P09874); stopped-flow fluorescence anisotropy; double-stranded DNA, one strand shown): 3.7 nM
CUUAAUGAU (ssRNA)  Kd (U2AF2; sequencing of bound RNA; RNA; motif only): 1560 nM
TTCAATGCTCAATAATTGTGCAACAAACCTGGCGTGCACCATGATGATCATTCCATCAGGT (dsDNA)  Kd (glnG full length assumed (Escherichia coli, UniProt P0AFB8); BLI; double-stranded DNA, one strand shown): 29.4 nM
CCUCUAGAA (ssRNA)  Kd (U2AF2; sequencing of bound RNA; RNA; motif only): 3910 nM
AGGATCAGCCATTTGGCACACCAAGTGGTCCAAATGATGATTTAGG (dsDNA)  Kd (Protein BZR1 homolog 1-304 (Oryza sativa, UniProt A0A0P0UYT3); MST; double-stranded DNA, one strand shown): 2.8 nM
GUCUCUUCA (ssRNA)  Kd (U2AF2; sequencing of bound RNA; RNA; motif only): 510 nM
TTCTGATCACCGACATGAAAGCTAACAGGAACGTTAAGTGCCTTAGCTCCGGCTACCGTGC (dsDNA)  Kd (pdhR full length assumed (Escherichia coli, UniProt P0ACL9); BLI; double-stranded DNA, one strand shown): 14900 nM
CTGAAGGGGGGGCTATAAAAGGGGGTGGGGGCTCCTCAAGTCAATCGGTCC (dsDNA; 5'-amino-C6 primer)  Kd (SUA7 full length assumed (Saccharomyces cerevisiae, UniProt P29055); array; double-stranded DNA, one strand shown; TFIIB alone): 2.72 ± 1.02 nM
CGCTGATCACGTGATGACGTGATTACGTGCAGACGTGCATACGTGCCCACGTGCCCTCCGGCGGTATGAC (dsDNA)  Kd (CBF1 full length assumed; MITOMI; double-stranded DNA, one strand shown; not purified): 35 ± 3 nM
CAATACACTGTTATCAGACACAGCTGTCGAGCTACTCGTTCGGTTATCCGGCGGTATGAC (dsDNA)  Kd (CBF1; MITOMI; double-stranded DNA, one strand shown; not purified): 2970 ± 825 nM
colistin  MIC (Salmonella enterica serovar Typhimurium; broth microdilution; clinical isolate RKI-No 437/14): ≤ 0.5 µg/mL
AGCGTCACAGACATGAAATTGGTAAGACCAATTGACTTCGGCAAGTGGCTTAAGACAGGAA (dsDNA)  Kd (ulaR full length assumed; BLI; double-stranded DNA, one strand shown): 3520 nM
UCAUGUCUU (ssRNA)  Kd (U2AF2; sequencing of bound RNA; RNA; motif only): 7030 nM
CAATACACTGTTATCAGATACACGTGTCGAGCTACTCGTTCGGTTATCCGGCGGTATGAC (dsDNA)  Kd (PHO4; MITOMI; double-stranded DNA, one strand shown; not purified): 165 ± 4 nM
TTGTGCTACGGTCTCTCCACCCCCTGCTGCTGCTGTCAAGTCAATCGGTCC (dsDNA; 5'-amino-C6 primer)  Kd (SPT15 full length assumed; array; double-stranded DNA, one strand shown; TBP alone): 1.81 ± 0.08 nM
CAATACACTGTTATCATACACACGTGTCGAGCTACTCGTTCGGTTATCCGGCGGTATGAC (dsDNA)  Kd (CBF1; MITOMI; double-stranded DNA, one strand shown; not purified): 237 ± 15 nM
GGAGAGGCUGAGACUAACCCAGAAACAUCCAAUUCUCAAACUGAAGCUCGCACUCUCCC (RNA; hairpin)  Kd (GATA1 200-319 (Homo sapiens, UniProt P15976); fluorescence anisotropy; folded RNA): 16 ± 2 nM
CCATCGCTACC (dsDNA)  Kd (SUB1 full length assumed (Homo sapiens, UniProt P53999); fluorescence anisotropy; double-stranded DNA, one strand shown): 15 ± 3 nM
TCGGCTGGGAGGGGAGGTGTAGCCGGTCTTTGGGGTCAAGTCAATCGGTCC (dsDNA; 5'-amino-C6 primer)  Kd (SPT15 full length assumed; array; double-stranded DNA, one strand shown; TBP alone): 0.97 ± 0.07 nM
CAATACACTGTTATCAGCCACACGTGTCGAGCTACTCGTTCGGTTATCCGGCGGTATGAC (dsDNA)  Kd (CBF1; MITOMI; double-stranded DNA, one strand shown; not purified): 250 ± 15 nM
CGCAAAAACAACUAAAUCAAAACCAA (ssRNA; unstructured)  Kd (PARP1; fluorescence polarization; RNA; Hill coefficient 1.07): 193 ± 11 nM
GGUGCCUCCAUCACCUGGUCUUUGUAGACCACCUGAUGGAGGCACCC (RNA; hairpin with terminal loop)  Kd (GATA1 200-311 (Homo sapiens, UniProt P15976); fluorescence anisotropy; folded RNA): < 1300 nM

A few entries again:
UAUUUGAUU (ssRNA)  Kd (U2AF2; sequencing of bound RNA; RNA; motif only): 5140 nM
DNA 1 GCCGGGCCGGCCGGCCGGCCCCCGGGGCCCGGCGCTCAATTCAATCGGTCC / DNA 2 GGACCGATTGACTTGAGCGCCGGGCCCCGGGGGCCGGCCGGCCGGCCCGGC (dsDNA; blunt; C:T mismatch; 5'-amino-C6 primer)  Kd (SPT15 full length assumed; array; double-stranded DNA; TBP alone): 3.51 ± 0.27 nM
GCAUUUGAG (ssRNA)  Kd (U2AF2; sequencing of bound RNA; RNA; motif only): 4850 nM
GTAAAGTAGGAACGGTATTAATAGAAATGATACTAAAGTACGAAATAATAAACTGGAATTT (dsDNA)  Kd (ulaR full length assumed; BLI; double-stranded DNA, one strand shown): 3050 nM
CTGAAGGGGGGGCTATAAAAGAAGGTGGGGGCTCCTCAAGTCAATCGGTCC (dsDNA; 5'-amino-C6 primer)  Kd (SPT15 full length assumed; array; double-stranded DNA, one strand shown; TBP alone): 77.5 ± 47.5 nM
